Assay results gathered from unrelated publications.
Each line is one published result; not all experiments were run side by side. ± marks the error that the study gave.
APP: Amyloid-beta precursor protein (APP, Homo sapiens, UniProt P05067)
APP Aβ40 fibrils: Amyloid-beta precursor protein, Aβ40 fibrils (APP, Homo sapiens, UniProt P05067)

Compound	target	assay	system	conditions	how to read	quantity	value
CC(C)(O)c1cc2c(ccc3c(=O)cc(-c4ccccc4)oc32)o1	APP	amyloid aggregation, inhibitor, fluorescence	–	–	–	IC50	> 200 µM
NC(Cc1ccccc1)C(O)CNCc1cccc(C(F)(F)F)c1 (stereo not shown)	Amyloid-beta precursor protein, amyloid-beta 1-40 oligomers (APP, Homo sapiens, UniProt P05067)	binding	–	–	–	Kd	~2 µM
CC(=O)N[C@H]1CC(=O)N[C@@H](Cc2ccccc2)C(=O)N[C@@H](CC(=O)O)C(=O)N[C@H](C(=O)N[C@@H](CCCNC(=N)N)C(=O)N[C@H](C(=O)N[C@@H](CCCNC(=N)N)C(=O)N[C@@H](C)C(=O)N[C@@H](CCC(=O)O)C(=O)N[C@@H](CCCNC(=N)N)C(=O)N[C@@H](C)C(=O)N[C@@H](CCC(=O)O)C(N)=O)C(C)C)CNC1=O	APP Aβ40 fibrils	binding to Aβ40 fibrils, fluorescence polarization	–	24 h, pH 7.4, 25 °C, added: 100 µM Aβ40 fibrils	–	Kd	24.6 µM
COc1cc2c(c3oc(-c4ccccc4)cc(=O)c13)C=CC(C)(C)O2	APP	amyloid aggregation, inhibitor, fluorescence	–	–	–	IC50	109 µM
Cc1ccc(-c2nc3ccc(/N=N/c4ccc([N+](=O)[O-])cc4)cc3c(-c3ccccc3)c2I)cc1	APP Aβ40 fibrils	thioflavin T competition	–	added: preformed fibrils 5 µM, thioflavin T 2 µM	binding	Ki	0.204 ± 0.019 µM
COc1cc(-c2nc3ccccc3s2)cc(CN2CCN(CC(=O)O)CCN(CC(=O)O)CC2)c1O	Amyloid-beta precursor protein, fibril (APP, Homo sapiens, UniProt P05067)	binding, fluorescence	–	–	–	Kd	0.121 µM
CC(=O)N[C@H]1CC(=O)N[C@@H](Cc2ccccc2)C(=O)N[C@@H](CCCNC(=N)N)C(=O)N[C@H](C(=O)N[C@@H](CC(=O)O)C(=O)N[C@H](C(=O)N[C@@H](CCCNC(=N)N)C(=O)N[C@@H](C)C(=O)N[C@@H](CCCNC(=N)N)C(=O)N[C@@H](CCC(=O)O)C(=O)N[C@@H](C)C(=O)N[C@@H](CCC(=O)O)C(N)=O)C(C)C)CNC1=O	APP Aβ40 fibrils	isothermal titration calorimetry	sodium phosphate buffer	pH 8, 25 °C, peptide titrated into protein	–	Kd	18.9 µM
CC(C)C[C@H](NC(=O)[C@@H](N)Cc1ccccc1)C(=O)O	Amyloid-beta precursor protein, amyloid-beta 1-40 Q15A (APP, Homo sapiens, UniProt P05067, Q686A)	–	–	concentration not given	–	Kd	126 ± 86.6 µM
CC(=O)N[C@H]1CC(=O)N[C@@H](Cc2ccccc2)C(=O)N[C@@H](CCCNC(=N)N)C(=O)N[C@H](C(=O)N[C@@H](CC(=O)O)C(=O)N[C@H](C(=O)N[C@@H](CCCNC(=N)N)C(=O)N[C@@H](C)C(=O)N[C@@H](CCC(=O)O)C(=O)N[C@@H](CCCNC(=N)N)C(=O)N[C@@H](C)C(=O)N[C@@H](CCC(=O)O)C(N)=O)C(C)C)CNC1=O	APP Aβ40 fibrils	binding to Aβ40 fibrils, fluorescence polarization	–	24 h, pH 7.4, 25 °C, added: 100 µM Aβ40 fibrils	–	Kd	3.8 µM
COc1c(C(=O)/C=C/c2ccccc2)ccc2occc12	APP	amyloid aggregation, inhibitor, fluorescence	–	–	–	IC50	> 200 µM

A few entries again:
Compound	target	assay	system	conditions	how to read	quantity	value
COc1cc2c(c3oc(-c4ccccc4)cc(=O)c13)C=CC(C)(C)O2	APP	amyloid aggregation, inhibitor, fluorescence	–	–	–	IC50	109 µM
